Measurements gathered from unrelated publications.
Numbered parts are unrelated; each lists some results of a single study.

Series 1 — method: protein binding microarray; molecule type: double-stranded DNA, one strand shown; matrix: in vitro; concentration: not given; baseline: not given; direction: higher = stronger binding
Target: Histone acetyltransferase KAT6A, winged helix 1, GST fusion (KAT6A, Homo sapiens, UniProt Q92794, residues 1-85)
Setting: 8-mer, flanks averaged, mean of 2 arrays, mostly near background
Residues (chain): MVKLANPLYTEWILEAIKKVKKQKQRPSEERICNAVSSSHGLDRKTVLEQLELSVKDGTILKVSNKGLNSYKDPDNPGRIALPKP
Strand	E-score
GGGACGAC	0.0363
GAACAAAA	-0.107
ACTAATAC	0.0106
ATACTGCC	0.0561
AACCACAT	-0.252
CACCGCAA	0.0735
ACTAGGTG	-0.0728
CGGGTTAC	0.313
GAGGGATA	-0.074
CAGCCTCC	-0.119
AACGCAAC	-0.086
GCTAGTCC	0.022
GACATCAA	-0.145
CGGCAACG	0.386
AACATGAT	-0.0357
ACCAGGAG	-0.161
GTGTCCAA	-0.131
AAGAAAAA	-0.223
AGTAAACC	-0.0246
CACTCCCC	0.172
ACTGCAAG	-0.0785
CCTGACAG	-0.205
GGAACCGA	-0.0192
ATCATAGG	0.00198
GCTGGCCC	0.0641

Series 2 — method: RNA Bind-n-Seq; molecule type: RNA; matrix: in vitro; concentration: not given; baseline: input RNA pool; direction: higher = stronger binding
Target: RING finger protein unkempt homolog, zinc fingers 1-6, GST-SBP tag (UNK, Homo sapiens, UniProt Q9C0B0, residues 30-357)
Setting: RNA with constant flanks, human and mouse sites, ends assumed
Constant ends, left off below: GGGAGUUCUACAGUCCGACGAUC … CAACAGAGGAUUGAGCAUCA
Target sequence (chain): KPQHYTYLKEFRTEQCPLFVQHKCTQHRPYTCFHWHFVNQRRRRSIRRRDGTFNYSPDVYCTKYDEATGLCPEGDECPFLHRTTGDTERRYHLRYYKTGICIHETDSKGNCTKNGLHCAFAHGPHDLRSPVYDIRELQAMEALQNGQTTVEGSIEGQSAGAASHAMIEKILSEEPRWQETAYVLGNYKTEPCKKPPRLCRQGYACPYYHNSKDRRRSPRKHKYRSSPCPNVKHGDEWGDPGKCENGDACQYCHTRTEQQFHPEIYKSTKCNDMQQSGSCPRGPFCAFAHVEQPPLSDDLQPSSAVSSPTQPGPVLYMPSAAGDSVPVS
Strand	bound/input enrichment [ratio]
GAUUUAGUAAAUGAAAUUUGACCAAAUGGAAGAAUCAUGUUAGUUCUGACCUCAAUACUAUAGUAACUUUUAGGCGUGGGUGUAGAAGUUUAUAGGUUUCUAUUGACAGUUAUUGUAAAU	4.69
CAGAGGAACCAAUGGGCAUUGGUGGCUCCUGUACCACAUUCCUUUUAUUCAUUUGAACUAAUAGUGGUUCAGAAUUAUCUUUACGCUGUCAACAGUAAGCGCAUGCUCUGCUAUGAUCCU	0.207
UCCUGUGUUAGGGGGGGUCUGGCUUUUUCUGGAGGUAACUAGGGUGAUGAAAACGUAUCCUUAGGCGUGGUUAUGGCCGUCUUGGCCACCUGUACACCACUUGCCAAUGCAAGGACUUGU	0.539
GCAGAUUUCUGUGCAUCGUGCUGUGAACCUCUGAUGACCCUAAAGUUAUCUAUGUUCUCCUUAGUGGAAUAUUUCCUUUUGAGAGAUUGUAUAUUUUAAAAUACUGUCUAGAGUUUAUGA	1.4
GUAUAUCAAGGAGUGAAGAAACACGGCUUCUUACAGCCUCAUUUUUUGGCAGAACAAGAUAUAGUUAUCAUUACCUAUGAUGUUCUUCGUUCAGAACUAAACUAUGUCAAUAUCCCACAU	0.0919
GUGCACACUGGUGAGCGACCACACCAGUGCCCAGAGUGCGGGAAGCGUUUCACCAACAAGCCCUACCUGACCUCGCACCGGCGCAUACAUACCGGCGAGAAGCCCUACCCAUGCACCGAG	0.0637
GGGCAGACCCGGUGGGCUGACCUGAAGAGUGCCCUAGUCUUCAUUACUUUCACUUAUGGGUUUUCACCAGUGCUGAAGACCCUUACAGAGUCUGUCAGCACUGACACCAUCUAUGCCAUG	0.124
UGUUUUCAUGCCCGGCCUUUGUUCCUCCAUAAAUGUGUCCUUUAGUUUCAAACAGAUCUUUAUAGUUCGUGCUUCAUAAGCCAAUUCUUAUUAUUAUUUUUGGGGGACUCUUCUUCAAAG	8.04

Series 3 — method: protein-binding microarray; molecule type: double-stranded DNA, one strand shown; matrix: in vitro; concentration: 250 nM; setting: 60-bp whole probe; together with: salmon DNA 0.4 mg/ml; baseline: random background probes; direction: higher = stronger binding; constant ends, left off below: GCCTAGCAC … GTCTTGATTCGCTTGACGCTGCTG
Target: Interferon regulatory factor 7, full length, phosphomimetic (IRF7, Homo sapiens, UniProt Q92985, residues 1-503, S101K/S471D/S472D/S475D/S476D/S477D/S483D/S484D/S487D)
Residues (chain): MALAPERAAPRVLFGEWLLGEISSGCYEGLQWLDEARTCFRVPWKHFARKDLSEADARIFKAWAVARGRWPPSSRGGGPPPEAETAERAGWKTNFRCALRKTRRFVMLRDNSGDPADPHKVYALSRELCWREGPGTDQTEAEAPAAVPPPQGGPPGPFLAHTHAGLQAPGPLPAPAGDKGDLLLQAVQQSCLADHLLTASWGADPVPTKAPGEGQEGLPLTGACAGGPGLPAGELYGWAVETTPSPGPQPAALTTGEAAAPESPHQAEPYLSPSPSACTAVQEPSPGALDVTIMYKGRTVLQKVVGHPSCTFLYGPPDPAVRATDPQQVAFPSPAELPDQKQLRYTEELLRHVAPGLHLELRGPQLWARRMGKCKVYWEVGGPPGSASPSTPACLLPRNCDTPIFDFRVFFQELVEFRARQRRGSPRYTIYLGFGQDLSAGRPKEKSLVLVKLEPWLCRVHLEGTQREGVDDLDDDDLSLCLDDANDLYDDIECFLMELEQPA
Strand	log fluorescence [z-score]
TTAGATACCAGTTTCGATTAGTGCTAG	8.75
TCAATTTTCTCTTATTCACTGTGCTAG	1.01
TTAGGTCTAGGTTTCGGTTAGTGCTAG	7.56
GACAGTATCGGTATCGGGACGTGCTAG	1.3
TCACTTTCCTTCTTGATACTGTGCTAG	2.42
GGCTCCTCCCCGCTTCTGGAGTGCTAG	-0.336
GACGGTTTACTACTGCTGACGTGCTAG	0.098
TTAGATTTCAGATCCGATTAGTGCTAG	0.75
CACGATCTCAGTTTCGAGACGTGCTAG	4.13
TTAGATCTCTGTCTCGATTAGTGCTAG	0.504
GACGATTCCGGGACTGGAGACGTGCTA	-0.324
GGGTCTCTTGTTCTCTCTGGGTGCTAG	1.13
TCACTTCTTTTTTATTCTACTGTGCTA	1.36
ACAGGAGTGTTTCTCAGTTTGTGCTAG	0.00537
TTAGTTATCGGGTATCGGTTAGTGCTA	1.19
TCACCTCTGTTTTGAGCACTGTGCTAG	0.533
CAGAAGCCAGAGAGGACAGGGTGCTAG	-0.604
TTAGGACGGGGTTTCGGTTAGTGCTAG	6.32
CAGTTAATGAAAATTCTAATTGTGCTA	0.349

Series 4 — method: RNA Bind-n-Seq; molecule type: RNA; matrix: in vitro; concentration: 20 nM; setting: 6-mer, flanks averaged, single round; together with: 150 mM KCl; baseline: input library; direction: higher = stronger binding
Target: TAR DNA-binding protein 43, full length, His tag (TARDBP, Homo sapiens, UniProt Q13148, residues 1-414)
Strand	6-mer enrichment (R)
GACUUU	0.621
UUCCCC	0.633
CCCCAU	0.665
AUAAAG	0.735
ACCUAC	0.613
CAUAAG	0.7
GUCAUA	0.635
AGACUU	0.583
UGACGC	0.812
UUUGUC	0.62
CGCGCG	1.49
CGACAG	0.912
UUGUAU	0.742
GUCAGA	0.874
ACCCCG	0.677
GAGUAC	0.858
UCAACU	0.564
GAGCGC	1.39
CAGCCU	0.651
UCCUGU	0.616
AAUCGG	0.881
CCCCUC	0.656
AUCAAU	0.598
CACGAA	0.718
GAGGGA	5.06

Repeated from above (series 4):
Strand	6-mer enrichment (R)
ACCCCG	0.677
GAGUAC	0.858
UCAACU	0.564
GAGCGC	1.39
CAGCCU	0.651
UCCUGU	0.616
AAUCGG	0.881
CCCCUC	0.656
